Published values pooled from the literature.
Parts stem from different laboratories: compare values within a part only.

Series 1 — technique: RNA Bind-n-Seq; molecule type: RNA; matrix: in vitro; concentration: 200 nM; setting: whole 134-nt RNA, ends assumed; with: 150 mM LiCl; baseline: input library; reading: higher = stronger binding; quantity: log2 enrichment; library: 7-deaza-guanosine replaces G
Target: Ras GTPase-activating protein-binding protein 1, full length (G3BP1, Homo sapiens, UniProt Q13283)
UniProt Q13283, sequence (whole entry, looked up): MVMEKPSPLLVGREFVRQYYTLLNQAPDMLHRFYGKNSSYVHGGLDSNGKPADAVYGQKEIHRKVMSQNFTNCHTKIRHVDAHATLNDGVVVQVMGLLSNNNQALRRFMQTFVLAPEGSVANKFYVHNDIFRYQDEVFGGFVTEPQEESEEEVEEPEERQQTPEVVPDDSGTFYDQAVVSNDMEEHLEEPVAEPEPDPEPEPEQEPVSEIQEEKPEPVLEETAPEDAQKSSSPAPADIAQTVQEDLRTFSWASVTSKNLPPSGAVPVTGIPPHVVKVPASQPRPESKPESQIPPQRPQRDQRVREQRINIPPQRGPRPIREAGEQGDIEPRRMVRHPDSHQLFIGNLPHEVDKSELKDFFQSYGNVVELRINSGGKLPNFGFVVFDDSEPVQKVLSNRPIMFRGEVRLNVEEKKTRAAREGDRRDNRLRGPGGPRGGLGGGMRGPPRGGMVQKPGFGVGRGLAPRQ
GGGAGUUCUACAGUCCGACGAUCAGUCCUGUGCUACACAUCGUAUGUACCGAAUCGGGGUUUUGGUUUUGGGGUUUUGGGGAAAGUAUUAUGUUACGCCGUUCGGAUCUGCACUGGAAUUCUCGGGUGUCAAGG: 0.561
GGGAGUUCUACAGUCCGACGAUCAGUCCUGUGCUACACAUCGUAUGUACCGAAUCGGGAAAAAAAGGGAAAGGGUUUGGGAAAGUAUUAUGUUACGCCGUUCGGAUCUGCACUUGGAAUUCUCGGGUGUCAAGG: -2.4
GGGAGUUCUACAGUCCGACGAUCAGUCCUGUGCUACACAUCGUAUGUACCGAAUCAAAUUUUUAAAUUUUUAAACCCAAAAAAGUAUUAUGUUACGCCGUUCGGAUCUGCACUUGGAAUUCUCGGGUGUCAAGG: 0.211
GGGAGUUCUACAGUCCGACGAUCUCCUGUGCUACACAUCGUAUGUACCGAAUCGGGGAAAGGGGAAAGGGGUUUUUUUGGGGAAAGUAUUAUGUUACGCCGUUCGGAUCUGCAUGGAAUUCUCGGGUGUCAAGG: 1.13
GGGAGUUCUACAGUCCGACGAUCCCUCAAGUCCUGUGCUACACAUCGUAUGUACCGAAUCGGGGAGGGAGGAGGGGAAAGUAUUAUGUUACGCCGUUCGGAUCUGCACUUCCAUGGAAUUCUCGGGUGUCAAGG: 0.0591
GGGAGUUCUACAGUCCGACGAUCCAAGUCCUGUGCUACACAUCGUAUGUACCGAAUCGGCCCGGGCCCGGGGCCCGGGGAAAGUAUUAUGUUACGCCGUUCGGAUCUGCACUUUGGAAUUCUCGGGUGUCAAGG: -0.763
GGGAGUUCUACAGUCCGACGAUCUUCCCUGUACCGGCAGAGUUCACAAACACAUUUGAAGAGGCUUUUUCUCAGGAUUCUUAACCUUCCCAAAGGAAGUCCCAUGGAUGGGUUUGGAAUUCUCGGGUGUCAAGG: -1.13
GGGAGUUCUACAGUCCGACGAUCUCCUGUGCUACACAUCGUAUGUACCGAAUCGGGGUUUGGGGUUUGGGGUUUUUUUGGGGAAAGUAUUAUGUUACGCCGUUCGGAUCUGCAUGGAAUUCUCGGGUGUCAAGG: 0.161
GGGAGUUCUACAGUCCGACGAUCUAACUUUAGAGGAAGAUCUGAUGGAUAUGGCAGUGGACGUGGAUUUGGGGAUGGCUAUAAUGGGUAUGGAGGAGGACCUGGAGGUGGCAAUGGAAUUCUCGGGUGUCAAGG: 0.0635
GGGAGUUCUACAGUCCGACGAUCUAACUUUAGAGGAGGAUCUGAUGGAUAUGGCAUUGGACGUGGAUUUGGGGAUGGCUAUAAUGGGUAUGGAGGAGGACCUGGAGGUGGCAAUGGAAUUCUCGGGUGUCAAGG: -0.185
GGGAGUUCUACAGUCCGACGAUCUGGGAGGUGGAUUUUGUUUAUUUUUUUAGCUCAUUUCCAGGGGUUGGAAUUUUUUUUUAAUAUGUGUCAUGAAUAAAGUUGUUUUUGAAAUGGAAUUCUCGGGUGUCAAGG: -0.875

Series 2 — technique: protein binding microarray; molecule type: double-stranded DNA, one strand shown; matrix: in vitro; concentration: not given; baseline: not given; reading: higher = stronger binding; quantity: E-score
Target: Histone acetyltransferase KAT6A, winged helix 1, GST fusion (KAT6A, Homo sapiens, UniProt Q92794, residues 1-85)
Setting: 8-mer, flanks averaged, mean of 2 arrays, mostly near background
Target sequence (chain): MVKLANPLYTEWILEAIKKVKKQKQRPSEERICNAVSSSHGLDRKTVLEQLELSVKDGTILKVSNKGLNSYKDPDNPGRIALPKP
GGGATATA: -0.039
AACACAAA: -0.284
ACGGTAAA: 0.241
GCTGTCAC: -0.108
GAATTAAC: -0.156
CTCATCAA: -0.168
CGGGAGAC: 0.246
AGAGCTGG: -0.208
CCGTATCC: 0.3
GCATTTAC: 0.00442
CTTAGGGA: -0.224
CCCTCGCA: 0.0164
CGAAACAC: 0.0134
GACCAGTC: -0.109
CGAGACAA: -0.147
AGGCGGCC: 0.352
ATATAATG: -0.151
GACACCCA: -0.243
AAAGGCCC: 0.11
CAAAGCGA: -0.0537
ATACTAAG: -0.103
TGTGACAA: -0.137
GACGCGCA: 0.323
ACAAGACG: 0.0433
CCGAGCCC: 0.204

Series 3 — technique: protein-binding microarray; molecule type: double-stranded DNA, one strand shown; matrix: in vitro; concentration: 0.8 µM; setting: whole 60-bp probe, no competitor; reading: higher = stronger binding; quantity: fluorescence intensity
Target: Centromere-binding protein 1, full length, N-terminal tag (CBF1, Saccharomyces cerevisiae, UniProt P17106, residues 1-351)
UniProt P17106, sequence (whole entry, looked up): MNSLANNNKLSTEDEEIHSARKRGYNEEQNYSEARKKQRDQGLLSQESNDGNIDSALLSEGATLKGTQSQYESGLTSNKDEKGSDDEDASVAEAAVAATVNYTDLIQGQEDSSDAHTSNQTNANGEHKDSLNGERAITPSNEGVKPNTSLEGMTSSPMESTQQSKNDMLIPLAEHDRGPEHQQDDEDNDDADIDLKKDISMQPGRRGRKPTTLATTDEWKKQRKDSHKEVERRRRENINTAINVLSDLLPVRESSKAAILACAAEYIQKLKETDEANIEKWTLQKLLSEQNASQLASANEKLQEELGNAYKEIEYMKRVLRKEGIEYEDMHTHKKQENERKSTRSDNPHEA
CTAGCCCAGTTAATTTTCGTGATTTTTCCCTTCTTCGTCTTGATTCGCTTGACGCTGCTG: 524 a.u.
CTATAGCGCTTTGATCACGTGCTCGGGCGCTATTTCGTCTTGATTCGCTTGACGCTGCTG: 33200 a.u.
GAAAGTTGTTCCGCTCACGCGAACAGGTTTTTCTAGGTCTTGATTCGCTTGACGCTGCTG: 518 a.u.
CCTAACTACTATATTCACGTGTTATAGCTTCGTACAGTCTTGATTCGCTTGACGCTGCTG: 3440 a.u.
GAAATGATTCCTTTTCACGCGCATTTTTTTCAGTAGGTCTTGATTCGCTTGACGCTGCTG: 678 a.u.
CTACTTATTACTGTCGGCGTGCCATCCTTTTCTTTCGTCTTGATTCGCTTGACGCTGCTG: 600 a.u.
CTATAGGAAAAGCCCGACGTCATTATAGCTATGTTCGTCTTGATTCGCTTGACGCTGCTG: 504 a.u.
TGTACGAAGCTATTACACGTGATTATAGTAGTTAGGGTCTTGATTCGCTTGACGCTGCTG: 7920 a.u.
GAAATGACTCCATAAAACGTGAAGCAGCAGCTATAGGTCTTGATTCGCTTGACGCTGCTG: 532 a.u.
CTAGAAAGCGGGACGGACGTGCTTGTTTTACCTTTCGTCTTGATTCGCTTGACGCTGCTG: 504 a.u.
CTAAACCGCCTTTGTCACCCCATCCGGTAAGTATTCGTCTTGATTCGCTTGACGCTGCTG: 497 a.u.
CTAAATCATTCGTGCCTCGTGATATTGAGAAGATTCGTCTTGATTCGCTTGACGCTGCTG: 1420 a.u.
CTAATAATTCAGCGTGATATGATGAAATTTTGTTTCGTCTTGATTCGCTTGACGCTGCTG: 643 a.u.
GAAGGTGTTCAAAACCACGTTCATCACTCGGTATAGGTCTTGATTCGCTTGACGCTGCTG: 532 a.u.
GAATAGAACCACAGTCACGTGATATGCTTATCATAGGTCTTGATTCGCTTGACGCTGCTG: 37500 a.u.
GAATATTCTTAAATACGCATGACCATCCGCGAATAGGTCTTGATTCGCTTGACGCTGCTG: 790 a.u.
GAAAATATGAAAACTCACATGCCTTCTGTTTCTTAGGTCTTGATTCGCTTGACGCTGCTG: 559 a.u.

Series 4 — technique: RNA Bind-n-Seq; molecule type: RNA; matrix: in vitro; concentration: 90 pmol; setting: 4-mer, random 30-nt RNA, single round; with: 3 µM DMDA-PatA, 2 mM ADP, 2 mM phosphate; baseline: input library; reading: higher = stronger binding; quantity: 4-mer enrichment
Target: ATP-dependent RNA helicase DDX3X, helicase core (DDX3X, Homo sapiens, UniProt O00571, residues 132-607)
UniProt O00571, sequence (132-607, looked up): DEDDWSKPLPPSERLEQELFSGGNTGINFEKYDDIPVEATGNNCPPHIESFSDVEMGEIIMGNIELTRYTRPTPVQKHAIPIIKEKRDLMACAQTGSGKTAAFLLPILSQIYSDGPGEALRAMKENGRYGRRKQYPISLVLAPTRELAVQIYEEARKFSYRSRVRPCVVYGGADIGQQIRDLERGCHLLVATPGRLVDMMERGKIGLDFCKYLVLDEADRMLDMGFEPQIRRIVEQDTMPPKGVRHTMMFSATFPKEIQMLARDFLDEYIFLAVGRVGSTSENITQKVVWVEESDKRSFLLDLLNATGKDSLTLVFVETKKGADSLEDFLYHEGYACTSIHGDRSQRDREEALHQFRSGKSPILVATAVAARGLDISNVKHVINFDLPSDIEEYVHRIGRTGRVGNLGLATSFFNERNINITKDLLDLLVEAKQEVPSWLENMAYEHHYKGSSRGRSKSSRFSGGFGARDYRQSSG
ACUU: 0.789 fold
UACA: 0.969 fold
CGGG: 1.19 fold
UUGC: 0.851 fold
AGCG: 1.09 fold
CUGG: 0.818 fold
CAAG: 1.18 fold
AUUG: 0.926 fold
CACA: 1.05 fold
CCAU: 0.929 fold
ACCG: 0.916 fold
AUGA: 1.02 fold
AUCC: 0.916 fold
GCCU: 0.805 fold
ACCU: 0.851 fold
UCGG: 0.895 fold
AUUU: 1.02 fold
GCGA: 1.01 fold
AAUU: 1.08 fold
CCCA: 1.16 fold
CCGC: 1.06 fold
GUCC: 0.939 fold
UUAC: 0.894 fold
AUAG: 0.979 fold
ACUC: 0.854 fold

Series 5 — technique: RNA Bind-n-Seq; molecule type: RNA; matrix: in vitro; concentration: 100 nM; baseline: input RNA pool; reading: higher = stronger binding; quantity: bound/input enrichment
Target: RING finger protein unkempt homolog, zinc fingers 1-6, SBP tag (UNK, Homo sapiens, UniProt Q9C0B0, residues 30-357)
UniProt Q9C0B0, sequence (30-357, looked up): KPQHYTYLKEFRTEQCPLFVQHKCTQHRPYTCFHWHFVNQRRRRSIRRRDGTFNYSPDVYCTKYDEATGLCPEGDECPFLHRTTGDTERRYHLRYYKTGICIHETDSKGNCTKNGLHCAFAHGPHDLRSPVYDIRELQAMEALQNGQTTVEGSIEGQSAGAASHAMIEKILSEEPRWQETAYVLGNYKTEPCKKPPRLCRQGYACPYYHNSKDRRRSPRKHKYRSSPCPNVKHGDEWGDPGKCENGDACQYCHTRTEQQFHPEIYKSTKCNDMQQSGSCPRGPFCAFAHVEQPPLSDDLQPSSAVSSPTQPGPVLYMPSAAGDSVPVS
Setting: RNA with constant flanks, vertebrate orthologous sites, ends assumed
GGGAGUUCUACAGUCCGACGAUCGCUGCGAUCCCUUCAAUAUACACAGAAAACUAUCGAAGAAAAACUUGCGAGCAAUUGACUUGGAUGAUGCAACUUUUCUAAGCGCCAAGUUUGGAAGGCAGUUUGUACCUGGUUGGAAGCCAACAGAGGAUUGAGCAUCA: 0.229 ratio
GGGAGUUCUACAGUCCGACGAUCUCCCAGCACGUUGAUAAAGAGCGUGGACUGGUUGCUCAUAUUUUCUUUAUUCUUUUUAAUCAGUUUUAUUAUGUAUGCUACCAUCCGAACUGAGAGUAUUCGGUGGCUAAUUCCAGGACACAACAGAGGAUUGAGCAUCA: 0.614 ratio
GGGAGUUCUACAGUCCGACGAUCUUCAGGCACAACUGACUGGUUCACAGCAUUCCUUACAUAGUUAUCUAUCAAAUGCAAAUUUAGUUAAUUUUCAGGAAACAAGCAGGCAGUCAUCUUUAUCCUGUAGCCCAAUUGGAGAGUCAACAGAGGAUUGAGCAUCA: 2.84 ratio
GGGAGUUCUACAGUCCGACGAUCCUACUAUAAACAACUCAGGGCAGUAUUCUCGAUAUCCUUACAGUAACCUAAAUCAGGGAUUAGUUAACAAUACAGGGAUGAAUCAAAAUUUAGGCCUUACAAAUAAUACUCCAAUGAAUCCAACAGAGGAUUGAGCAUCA: 1.55 ratio
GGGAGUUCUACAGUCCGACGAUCUCAUUGUACUGCAAAAAUCAUCCUCGUUCUAAAUUAGCCACAGUGAUAACUUGUCUGCACUAGUAGAAUCAUUUACCUUUUAAAUUACCUGCUUUGUCUGAUACCUGAAACACAUCAAAACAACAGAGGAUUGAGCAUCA: 0.742 ratio
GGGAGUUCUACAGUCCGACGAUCGUUUGUUUUUAAUUUCAAGCAAAAAAAAAUCUUAUUGUACUUGAAUGUGUCCUGUUUUGUUAGCACACCUAGACUUGCUGUAACUGUACUCAUGUCCCAGUAUGUACGUUCUUUCUAUGACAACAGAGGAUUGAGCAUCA: 0.666 ratio
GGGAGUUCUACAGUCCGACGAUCGGGCGGCCGGUGGGGAAAUCCCAUGCCCUGGCCUUGCCUCCCCUCCCUGCCACCCGCUCCUAUUUUUUUUUUUAACCACCAUGUGAUUAAGGUCGGCACAGCCUCCCCCGACCCACUCAGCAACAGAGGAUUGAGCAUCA: 0.682 ratio
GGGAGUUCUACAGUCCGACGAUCGGGACAGUCUAGUUAAGGUAGUAACCAUUAAUUUAUUUUAAUAAAUGAUGAAAAUCAUAUUAGUACUAAGUUAGGUUGGAGAAUUUAAAUAUCUUUUAGAUGAUUCUAAAAAUAAAUCCUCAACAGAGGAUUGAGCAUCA: 0.508 ratio
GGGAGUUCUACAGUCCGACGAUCUCAUUUUUAAUUUUAACUUUAUUUUAUACAACGUGUAGACAGUUCCCUGUUCUCUGCAUUUAGAAGUAUACACAGUACAACUGUUAAUUCUGUAAGUAAUUUUUAUAAUUAUGAUGUAACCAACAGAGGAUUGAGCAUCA: 0.754 ratio
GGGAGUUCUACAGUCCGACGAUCCAGUCCUCUACUUAAACUGGUAUUUUCAAACAAUAGGAAGCUAUUUUUUUUUUUUUACAGUUUAGUAUCUUGUUUCUACAUGGAAGACUAAACAUGCUUAUAGCUAAAUGUGGUCUUUGCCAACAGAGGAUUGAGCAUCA: 0.57 ratio
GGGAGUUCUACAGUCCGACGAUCAUGCAUUUUGUGACUUGGAUGUGGUCUGCACAGGAAGCUGCUGGCCCCUGCGCAACAACACAUAAAAAGUUUGUCUUUUUUUAAGAUGUUAAAACUGAAUUGAAUUUACUAAAAAUGUAACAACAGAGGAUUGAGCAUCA: 0.141 ratio

For quick reference, copied from above (series 2):
CCGTATCC: 0.3
GCATTTAC: 0.00442
CTTAGGGA: -0.224
CCCTCGCA: 0.0164
CGAAACAC: 0.0134
GACCAGTC: -0.109
CGAGACAA: -0.147
AGGCGGCC: 0.352
ATATAATG: -0.151
GACACCCA: -0.243
AAAGGCCC: 0.11
CAAAGCGA: -0.0537
ATACTAAG: -0.103
TGTGACAA: -0.137
